{"data": "Measurements collected from several papers", "note": "Every numbered part comes from another study and shows a few of its results, in no order."}
{"data": "Block 1", "target": "Protein C-ets-1 (ETS1, Homo sapiens, UniProt P14921, residues 1-441, full length assumed)", "technique": "protein-binding microarray", "molecule type": "double-stranded DNA, one strand shown", "medium": "in vitro", "tested at": "not given", "notes": "k-mer, scored over probes, only values ≥0.25", "direction": "higher = stronger binding", "Target sequence (chain)": "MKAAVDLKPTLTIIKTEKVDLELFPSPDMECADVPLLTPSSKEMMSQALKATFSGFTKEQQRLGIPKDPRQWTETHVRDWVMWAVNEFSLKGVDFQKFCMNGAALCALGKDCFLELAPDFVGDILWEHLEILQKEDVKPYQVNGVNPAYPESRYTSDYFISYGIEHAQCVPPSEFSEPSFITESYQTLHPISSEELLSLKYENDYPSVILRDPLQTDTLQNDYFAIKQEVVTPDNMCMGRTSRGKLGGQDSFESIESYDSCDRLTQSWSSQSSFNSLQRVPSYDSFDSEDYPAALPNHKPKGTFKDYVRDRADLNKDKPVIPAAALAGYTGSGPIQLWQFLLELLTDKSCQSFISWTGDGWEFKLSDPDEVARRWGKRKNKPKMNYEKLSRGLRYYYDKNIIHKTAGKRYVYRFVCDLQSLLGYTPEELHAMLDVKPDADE"}
{"Strand": "CTTCCCTC", "E-score": 0.285}
{"Strand": "ACGTCCGC", "E-score": 0.434}
{"Strand": "CCAGGAAA", "E-score": 0.432}
{"Strand": "TGCGGAAA", "E-score": 0.454}
{"Strand": "AGCCCCGG", "E-score": 0.316}
{"Strand": "GGATGGGA", "E-score": 0.286}
{"Strand": "GCGGGGAA", "E-score": 0.255}
{"Strand": "CAAGCGGA", "E-score": 0.377}
{"Strand": "CGGAACCG", "E-score": 0.398}
{"Strand": "CCTCTCCC", "E-score": 0.28}
{"Strand": "GGGAAACA", "E-score": 0.328}
{"Strand": "ACAGGATA", "E-score": 0.438}
{"Strand": "AATATCCG", "E-score": 0.455}
{"Strand": "CAATCGGA", "E-score": 0.289}
{"Strand": "CCGCCCCA", "E-score": 0.275}
{"Strand": "AGGCAGGA", "E-score": 0.347}
{"Strand": "GTAGGACA", "E-score": 0.253}
{"Strand": "GGACATGA", "E-score": 0.253}
{"Strand": "CTAGGAAG", "E-score": 0.317}
{"Strand": "GGGCAGGA", "E-score": 0.406}
{"Strand": "AGCTGGAA", "E-score": 0.251}
{"Strand": "ATCGCCGG", "E-score": 0.326}
{"Strand": "CCTGTCCG", "E-score": 0.253}
{"data": "Block 2", "target": "Fragile X messenger ribonucleoprotein 1, C-terminal low-complexity region (Fmr1, Mus musculus, UniProt P35922)", "technique": "RNA Bind-n-Seq", "molecule type": "RNA", "medium": "in vitro", "tested at": "200 nM", "notes": "whole 134-nt RNA, ends assumed", "together with": "150 mM KCl", "reference": "input library", "direction": "higher = stronger binding", "constant ends, left off below": "GGGAGUUCUACAGUCCGACGAUC … UGGAAUUCUCGGGUGUCAAGG"}
{"Strand": "UGGCCCUGGUGGCAUGCGGGGAGGAAGAGGUGGCCUCAUGGAUCGUGGUGGUCCCGGUGGAAUGUUCAGAGGUGGCCGAGGUGGAGACAG", "log2 enrichment": -0.156}
{"Strand": "UGGCCCUGGUGGCAUGCGGGGAGGAAGAGGUGGCCUCAUGGAUCGUGGUGGUCCCGGUGGAAUGUUCAUAGGUGGCCGUGGUGGAGACAG", "log2 enrichment": 0.0425}
{"Strand": "AAGUCCUGUGCUACACAUCGUAUGUACCGAAUCGGUUUGGUUUUUGGAAAAAAAGGAAAGUAUUAUGUUACGCCGUUCGGAUCUGCACUU", "log2 enrichment": -0.792}
{"Strand": "CAAGUCCUGUGCUACACAUCGUAUGUACCGAAUCGGGGCCCGGGCCCGGGCCCGGAAAGUAUUAUGUUACGCCGUUCGGAUCUGCACUUC", "log2 enrichment": -1.47}
{"Strand": "CUGUGCUACACAUCGUAUGUACCGAAUCGGGGCCCCCCGGGCCCCCCGGGGCCCCCCGGGGAAAGUAUUAUGUUACGCCGUUCGGAUCUG", "log2 enrichment": -1.31}
{"Strand": "AGUCCUGUGCUACACAUCGUAUGUACCGAAUCGGGGAGGGGUUUUUUUGGGGAGGGGAAAGUAUUAUGUUACGCCGUUCGGAUCUGCACU", "log2 enrichment": 1.08}
{"Strand": "AGUCCUGUGCUACACAUCGUAUGUACCGAAUCGGGGAAAAAAAGGGGAGGGGAGGGGAAAGUAUUAUGUUACGCCGUUCGGAUCUGCACU", "log2 enrichment": 0.653}
{"Strand": "UGUGCUACACAUCGUAUGUACCGAAUCGGGUUUUUUUGGGGUUUUUUUGGGUUUUUUUGGGGAAAGUAUUAUGUUACGCCGUUCGGAUCU", "log2 enrichment": 0.169}
{"Strand": "CUCAAGUCCUGUGCUACACAUCGUAUGUACCGAAUCGGAGGAAAAAAAGGUGGAAAGUAUUAUGUUACGCCGUUCGGAUCUGCACUUCCA", "log2 enrichment": -0.27}
{"data": "Block 3", "target": "Histone acetyltransferase KAT6A, winged helix 2, GST fusion (KAT6A, Homo sapiens, UniProt Q92794, residues 85-181)", "technique": "protein binding microarray", "molecule type": "double-stranded DNA, one strand shown", "medium": "in vitro", "tested at": "not given", "notes": "8-mer, flanks averaged, mean of 2 arrays, mostly near background", "reference": "not given", "direction": "higher = stronger binding", "Construct (chain)": "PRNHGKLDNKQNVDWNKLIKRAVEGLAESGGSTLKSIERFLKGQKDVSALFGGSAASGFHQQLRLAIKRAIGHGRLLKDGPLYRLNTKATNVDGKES"}
{"Strand": "TGACGTAA", "E-score": -0.143}
{"Strand": "GAGTCCAA", "E-score": -0.089}
{"Strand": "GCCGTTAA", "E-score": -0.00492}
{"Strand": "CATGGCAC", "E-score": 0.00273}
{"Strand": "ATGGTCAC", "E-score": 0.123}
{"Strand": "GGTTTCGA", "E-score": 0.173}
{"Strand": "ACTTAACC", "E-score": 0.00713}
{"Strand": "GTTGGAAA", "E-score": 0.0217}
{"Strand": "TACTACTA", "E-score": -0.217}
{"Strand": "AATCAAGC", "E-score": 0.0889}
{"Strand": "ACTTGGAG", "E-score": -0.0761}
{"Strand": "CGCGCCCG", "E-score": 0.182}
{"Strand": "ACACCATC", "E-score": -0.0599}
{"Strand": "ATATCGTC", "E-score": -0.134}
{"Strand": "GCCTCGAC", "E-score": 0.0159}
{"Strand": "AAGTGTAT", "E-score": -0.198}
{"Strand": "ATGAGAAT", "E-score": 0.027}
{"Strand": "GTATCCAA", "E-score": 0.0281}
{"Strand": "GTCTCAGA", "E-score": -0.0131}
{"data": "Block 4", "target": "Centromere-binding protein 1, full length, His-tagged (CBF1, Saccharomyces cerevisiae, UniProt P17106, residues 1-351)", "technique": "competition protein-binding microarray", "molecule type": "double-stranded DNA, one strand shown", "medium": "in vitro", "tested at": "2 µM", "notes": "whole 60-bp probe, lowest competitor level", "together with": "Pho4 competitor, 0.05 µM", "direction": "higher = stronger binding", "constant ends, left off below": "… GTCTTGATTCGCTTGACGCTGCTG", "chain of UniProt P17106 (whole entry, looked up)": "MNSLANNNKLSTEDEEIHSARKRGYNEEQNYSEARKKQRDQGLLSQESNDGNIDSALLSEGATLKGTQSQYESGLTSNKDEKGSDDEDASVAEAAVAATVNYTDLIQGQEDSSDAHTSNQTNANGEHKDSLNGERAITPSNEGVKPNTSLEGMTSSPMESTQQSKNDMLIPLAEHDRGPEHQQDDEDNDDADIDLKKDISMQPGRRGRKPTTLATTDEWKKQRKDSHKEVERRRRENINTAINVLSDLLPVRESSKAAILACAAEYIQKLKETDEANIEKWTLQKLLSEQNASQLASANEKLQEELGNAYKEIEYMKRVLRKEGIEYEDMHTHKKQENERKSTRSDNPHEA"}
{"Strand": "ATAAGAACGCTACCAAACGTGGTAACTTGTCCGTCA", "fluorescence intensity [a.u.]": 97.5}
{"Strand": "CTTCTGTAAATTTGGAGTGTGGGTGGACGCGCCCCG", "fluorescence intensity [a.u.]": 76.5}
{"Strand": "TTTGCAGTGTAATCTCACGTGCAAAAGACTGAGTAA", "fluorescence intensity [a.u.]": 1350}
{"Strand": "AAATTACTAAGTTTTCACGTGCTTTACCCCGTATGA", "fluorescence intensity [a.u.]": 1680}
{"Strand": "ATCTTATTGATGTATTTCATATTATTGTTTTTTTTA", "fluorescence intensity [a.u.]": 85.1}
{"Strand": "AAAGCGGTAATTTGCCATGTGGGTGCAGATATCTAT", "fluorescence intensity [a.u.]": 109}
{"Strand": "CGGGGTTAAGTTTGTTGAGTGGGTGGCTTGCAGCAG", "fluorescence intensity [a.u.]": 91.5}
{"Strand": "CTTCTGTAAATTTGTCACACGACTTGACGCGCCCCG", "fluorescence intensity [a.u.]": 130}
{"Strand": "AGTAATGTCTTTCAACACGTCAACAACTCCTCGGGA", "fluorescence intensity [a.u.]": 85.7}
{"Strand": "CGTAGTATGGCAATATTCGTGGGTATAACATTCTGC", "fluorescence intensity [a.u.]": 80.1}
{"Strand": "AAGTCCTGGCACTTGCATGTGGTTTCGTAGAAGGTA", "fluorescence intensity [a.u.]": 81.5}
{"Strand": "AAGAACCCGATATCGCACGCTTCTCCAGGGGTCGGT", "fluorescence intensity [a.u.]": 56.6}
{"Strand": "CAAGGGATCCTCATTCTCGTGGTCGTAGGTGGGTTG", "fluorescence intensity [a.u.]": 71.8}
{"Strand": "CGTCCTAGTGATTGCTTGGTGGGTGCCATGAGGAAG", "fluorescence intensity [a.u.]": 74.6}
{"Strand": "CTAACGAAGGTTTGAACTGTGGGTGACAAGCCAAGT", "fluorescence intensity [a.u.]": 64.2}
{"Strand": "CTAAACAGTCCGCCCAACGTGGTCGAGTTTGCTTTA", "fluorescence intensity [a.u.]": 79.1}
{"Strand": "TCCGCGATCGCCGGCCACGGGCCGTCGGCGGCTGTT", "fluorescence intensity [a.u.]": 53.1}
{"Strand": "CGGGGTTAAGTTTTTCACGTGTCCTGCTTGCAGCAG", "fluorescence intensity [a.u.]": 885}
{"Strand": "TTCATCGAATGCTTGCACATGCCAATGCACAGACAA", "fluorescence intensity [a.u.]": 96}
{"data": "Block 5", "target": "Interferon regulatory factor 5, full length, phosphomimetic (IRF5, Homo sapiens, UniProt Q13568-2, residues 1-514, S451D/S453D/S456D/S462D)", "technique": "protein-binding microarray", "molecule type": "double-stranded DNA, one strand shown", "medium": "in vitro", "tested at": "940 nM top", "notes": "60-bp whole probe", "together with": "salmon DNA 0.4 mg/ml", "reference": "random background probes", "direction": "higher = stronger binding", "constant ends, left off below": "GCCTAGCAC … GTCTTGATTCGCTTGACGCTGCTG"}
{"Strand": "TCATCTTTCCTTACTTCACTGTGCTAG", "fitted relative affinity": "1.64 z-score"}
{"Strand": "TTAGATATCAGTTTCGACTAGTGCTAG", "fitted relative affinity": "4.73 z-score"}
{"Strand": "TCACCTGTCTACATGGGACTGTGCTAG", "fitted relative affinity": "0.0825 z-score"}
{"Strand": "AAGATTCTAGCCTATAGAAGCGTGCTA", "fitted relative affinity": "-0.388 z-score"}
{"Strand": "GACGATATCGGGTTACGAGACGTGCTA", "fitted relative affinity": "0.175 z-score"}
{"Strand": "GATGATTTCAGTCTCGAGACGTGCTAG", "fitted relative affinity": "1.63 z-score"}
{"Strand": "TCATTTCTATGTCTGTTACTGTGCTAG", "fitted relative affinity": "0.875 z-score"}
{"Strand": "TTAGCTATCCTTATCCTTTAGTGCTAG", "fitted relative affinity": "0.532 z-score"}
{"Strand": "GACGGTCTCGGTTTCGGGCCGTGCTAG", "fitted relative affinity": "6.18 z-score"}
{"Strand": "GACGAACCGAGTCTCGAGACGTGCTAG", "fitted relative affinity": "0.538 z-score"}
{"Strand": "TTAGATTCCAGTTTCGACTAGTGCTAG", "fitted relative affinity": "5.35 z-score"}
{"Strand": "TCAAGTTTTACTTTCTAACTGTGCTAG", "fitted relative affinity": "1.07 z-score"}
{"Strand": "TTAGATTCCAGTTTCGTTTAGTGCTAG", "fitted relative affinity": "6.39 z-score"}
{"Strand": "ATCTTCATGAAGTTTTAATAAGTGCTA", "fitted relative affinity": "-0.218 z-score"}
{"Strand": "TTAGGTTCCGACTATCGGTTAGTGCTA", "fitted relative affinity": "0.925 z-score"}
{"Strand": "AAGTGTGCCCATCTCTGCTCGTGCTAG", "fitted relative affinity": "0.145 z-score"}
{"Strand": "GACGGTTTCGACTTGCGGGACGTGCTA", "fitted relative affinity": "7.47 z-score"}
{"Strand": "TTATCAATCATTTTAGTTTTGTGCTAG", "fitted relative affinity": "0.764 z-score"}
{"Strand": "TTAGCTATCGGTTTCGGTTAGTGCTAG", "fitted relative affinity": "8.26 z-score"}
